Measurements collected from several papers.
Protocols differ between the studies behind these lines.

SMILES	cell line	read-out	technique	time	CC50
CN[C@@H]1C[C@H]2O[C@@](C)([C@@H]1OC)n1c3ccccc3c3c4c(c5c6ccccc6n2c5c31)C(=O)NC4	HEK293	cytotoxicity	MTT	24 h	3 ng/mL
CS(=O)(=O)Nc1ncn(-c2cc(F)c(COc3ccc(OS(=O)(=O)F)cc3)c(F)c2)n1	HEK-293T	–	–	–	> 40 µM
Nc1nc(CC(O)c2ccc(Cl)cc2)c(Br)c(=O)[nH]1 (centres unmarked)	CRFK	cytotoxicity	MTS	–	> 100 µM
C[C@H](Cn1cnc2c(N)ncnc21)OCP(=O)(O)O	MT-4	cell viability	–	–	> 250 µM
CCCCc1nc(N)[nH]c(=O)c1Br	CRFK	cytotoxicity	MTS	–	> 100 µM
CC[C@H](C)[C@H](N)C(=O)N[C@H](C(=O)N[C@@H](Cc1ccccc1)C(=O)N[C@@H](Cc1c[nH]cn1)C(=O)N[C@H](C(=O)N[C@@H](CCCCN)C(=O)N[C@@H](CCCCN)C(=O)N[C@@H](CCCCN)C(=O)N[C@@H](CC(C)C)C(=O)N[C@@H](CO)C(=O)N[C@H](C(=O)N[C@@H](CS)C(=O)N[C@@H](C)C(=O)N[C@@H](CC(N)=O)C(=O)N1CCC[C@H]1C(=O)N[C@@H](CCCCN)C(=O)N[C@@H](CCC(N)=O)C(=O)N[C@H](C(=O)N[C@@H](Cc1c[nH]c2ccccc12)C(=O)N[C@H](C(=O)N[C@@H](CCCCN)C(=O)N[C@@H](Cc1ccc(O)cc1)C(=O)N[C@H](C(=O)N[C@H](C(=O)N[C@@H](CCCNC(=N)N)C(=O)N[C@@H](CC(C)C)C(=O)N[C@@H](CC(C)C)C(=O)N[C@@H](CO)C(=O)N[C@@H](CCCCN)C(=O)N[C@@H](CCCCN)C(=O)N[C@H](C(=O)N[C@@H](CCCCN)C(=O)O)C(C)C)C(C)C)[C@@H](C)CC)C(C)C)[C@@H](C)O)C(C)C)[C@@H](C)O)[C@@H](C)CC	HaCaT	cell viability	MTT	24 h	46.3 µM
CCCc1nc(N)[nH]c(=O)c1Br	CRFK	cytotoxicity	MTS	–	> 100 µM
CCC[C@H](NC(=O)[C@@H]1[C@H]2CCC[C@H]2CN1C(=O)[C@@H](NC(=O)[C@@H](NC(=O)c1cnccn1)C1CCCCC1)C(C)(C)C)C(=O)C(=O)NC1CC1	HEK293T	cell viability	MTT	48 (unit not given)	> 50 µM
CC[C@H](C)[C@H](NC(=O)[C@H](Cc1ccccc1)NC(=O)[C@H](Cc1ccccc1)NC(=O)[C@@H](NC(=O)[C@@H](NC(=O)[C@H](CCCCN)NC(=O)[C@H](CCC(N)=O)NC(=O)[C@H](Cc1c[nH]cn1)NC(=O)[C@H](CO)NC(=O)[C@H](CO)NC(=O)[C@@H](NC(=O)[C@@H]1CCCN1C(=O)[C@H](C)NC(=O)[C@H](Cc1ccccc1)NC(=O)[C@H](CCCNC(=N)N)NC(=O)[C@H](CC(C)C)NC(=O)[C@H](Cc1ccccc1)NC(=O)[C@H](CCCCN)NC(=O)[C@H](C)NC(=O)CNC(=O)[C@H](CCCCN)NC(=O)[C@H](CCCNC(=N)N)NC(=O)[C@H](CCCCN)NC(=O)[C@@H](NC(=O)[C@H](Cc1ccccc1)NC(=O)[C@@H](NC(=O)[C@H](CC(=O)O)NC(=O)[C@@H](NC(=O)[C@@H](NC(=O)[C@@H](N)CCCCN)[C@@H](C)CC)[C@@H](C)O)C(C)C)C(C)C)C(C)C)C(C)C)[C@@H](C)O)C(=O)N[C@@H](Cc1c[nH]cn1)C(=O)O	HaCaT	cell viability	MTT	–	104 µM
CC(C)(C)NC(=O)N[C@H](C(=O)N1C[C@H]2[C@@H]([C@H]1C(=O)NC(CC1CCC1)C(=O)C(N)=O)C2(C)C)C(C)(C)C (some centres unmarked)	HEK293T	cell viability	MTT	48 (unit not given)	> 50 µM
CC[C@H](C)[C@H](NC(=O)[C@H](CCCCN)NC(=O)[C@H](CCC(N)=O)NC(=O)[C@H](CCSC)NC(=O)[C@H](CCC(N)=O)NC(=O)[C@H](CC(C)C)NC(=O)[C@H](CCC(N)=O)NC(=O)[C@H](CO)NC(=O)[C@H](CCCCN)NC(=O)CNC(=O)[C@H](C)NC(=O)[C@@H](N)CC(C)C)C(=O)N[C@@H](Cc1ccccc1)C(=O)N[C@@H](CCCCN)C(=O)N[C@@H](CCCCN)C(=O)N[C@@H](CC(C)C)C(=O)N1CCC[C@H]1C(=O)NCC(=O)N[C@@H](Cc1ccccc1)C(=O)N[C@@H](CCCCN)C(=O)N[C@@H](CCCCN)C(=O)N[C@H](C(=O)N[C@@H](Cc1c[nH]cn1)C(=O)N[C@H](C(=O)N[C@@H](CC(C)C)C(=O)NCC(=O)N[C@@H](Cc1ccccc1)C(=O)N[C@@H](CCCNC(=N)N)C(=O)N1CCC[C@H]1C(=O)N[C@@H](CCCCN)C(=O)N[C@@H](CCCCN)C(=O)O)C(C)C)[C@@H](C)CC	HaCaT	cell viability	MTT	–	47.4 µM
Nc1nc(CC(O)c2ccccc2C(F)(F)F)c(Br)c(=O)[nH]1 (centres unmarked)	CRFK	cytotoxicity	MTS	–	> 100 µM
CC[C@H](C)[C@H](NC(=O)[C@H](CC(=O)O)NC(=O)CNC(=O)[C@H](CCCCN)NC(=O)[C@H](C)NC(=O)[C@H](CS)NC(=O)[C@H](CC(C)C)NC(=O)[C@H](CCCNC(=N)N)NC(=O)[C@H](CO)NC(=O)[C@H](Cc1ccccc1)NC(=O)[C@H](Cc1ccc(O)cc1)NC(=O)[C@H](C)NC(=O)[C@H](CC(C)C)NC(=O)[C@H](CC(C)C)NC(=O)[C@H](CC(C)C)NC(=O)[C@H](CC(C)C)NC(=O)[C@@H]1CCCN1C(=O)[C@@H](N)CCCNC(=N)N)C(=O)N1CCC[C@H]1C(=O)N1CCC[C@H]1C(=O)N1CCC[C@H]1C(=O)N[C@@H](CC(C)C)C(=O)N[C@@H](CCCNC(=N)N)C(=O)N[C@@H](C)C(=O)N[C@@H](CC(C)C)C(=O)N1CCC[C@H]1C(=O)N[C@@H](CCCNC(=N)N)C(=O)N[C@@H](Cc1ccc(O)cc1)C(=O)N[C@@H](CCCNC(=N)N)C(=O)N[C@@H](CC(C)C)C(=O)N[C@@H](CC(C)C)C(=O)N[C@@H](CCCNC(=N)N)C(=O)N[C@@H](CC(=O)O)C(=O)N[C@@H](CC(C)C)C(=O)N1CCC[C@H]1C(=O)N[C@@H](CCCNC(=N)N)C(=O)N[C@@H](CC(C)C)C(=O)N[C@@H](CC(C)C)C(=O)N[C@@H](CCCNC(=N)N)C(=O)O	HaCaT	cell viability	MTT	24 h	418 µM
CC(C)(C)[C@@H]1NC(=O)O[C@@H]2CCC[C@H]2OC/C=C/C(F)(F)c2nc3ccccc3nc2O[C@@H]2C[C@@H](C(=O)N[C@]3(C(=O)NS(=O)(=O)C4(C)CC4)C[C@H]3C(F)F)N(C2)C1=O	HEK293T	cell viability	MTT	48 (unit not given)	> 50 µM

Repeated from above:
SMILES	cell line	read-out	technique	time	CC50
CN[C@@H]1C[C@H]2O[C@@](C)([C@@H]1OC)n1c3ccccc3c3c4c(c5c6ccccc6n2c5c31)C(=O)NC4	HEK293	cytotoxicity	MTT	24 h	3 ng/mL
